Assay results collected from several papers.
Each numbered part is a random draw from the data of one study; scales do not carry over between parts. Positions count from the first letter of the parent shown.

Sample 1
Target: RING finger protein unkempt homolog, zinc fingers 1-6, GST-SBP tag (UNK, Homo sapiens, UniProt Q9C0B0, residues 30-357)
Method: RNA Bind-n-Seq
Form: RNA
Medium: in vitro
Tested at: not given
Setting: RNA with constant flanks, human and mouse sites, ends assumed
Baseline: input RNA pool
Direction: higher = stronger binding
Endpoint: bound/input enrichment
Shared flanks, not repeated: GGGAGUUCUACAGUCCGACGAUC … CAACAGAGGAUUGAGCAUCA
Construct (chain): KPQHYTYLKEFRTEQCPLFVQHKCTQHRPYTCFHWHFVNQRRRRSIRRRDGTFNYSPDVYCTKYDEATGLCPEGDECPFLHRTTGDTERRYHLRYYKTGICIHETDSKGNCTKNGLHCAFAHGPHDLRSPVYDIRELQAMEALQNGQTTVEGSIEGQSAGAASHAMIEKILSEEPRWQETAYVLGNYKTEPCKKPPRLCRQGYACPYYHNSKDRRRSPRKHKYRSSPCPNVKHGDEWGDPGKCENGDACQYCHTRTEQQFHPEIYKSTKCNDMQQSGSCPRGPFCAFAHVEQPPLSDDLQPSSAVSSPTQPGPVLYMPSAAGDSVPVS
GCCCAGGGCAAGAUGGAGGGCACAAAGGGGCUGGGGUGGGACGUGUACUAGGGAGGUGGGUGGGUGGGGUGAGCAGAAGGGCAUUGUGUGUUGUAUUAUGAUGUGUGUUAAUUUCCAUGG: 6.06 ratio
CAUCGCCAACGGAAUCUUAGUGGAAGCACCCUCUAUCCUGUGUCUAAUAUCCCACGGUCUAAUGUAACCCCCUUUGGAAGUCCAGUGACCCCAGAAGUUCAUGUUUUCACAAAUGUUCAC: 0.325 ratio
GUUUGCUUUGUGAACAUAUGUGUAUUGUAUAUAUUCUGUAUAGUUAUACUGUACUGAAAUAUUAGCUUGUUUGAUAUGAGAAAAAGUAUGUAUUGAGUACCUUUUUGCUAGCCUGAUUGC: 1.97 ratio
CUGCUUCCAAACACUGACAGGGAUCAAGUUUGUGGUCCUGGCAGACCCUAGGCAAGCUGGAAUAGAUUCUCUUCUCCGAAAAAUUUAUGAAAUUUACUCAGACUUUGCCCUCAAGAAUCC: 0.278 ratio
CGACGCAAUAAGGAUGUGCUGGCCUGGGUAAAAAAGCGCAGAAGAACUAUUCGUAGAGAAGAUUUGAUCAGCUUCCUGUGUGGAAAGGUUCCUCCACCACGAAACUCUAGAGCUCCCCCA: 0.206 ratio
UCGGAGUUUGAUCCAUUUUUUAGUCUCUUUGCAUUCACCAACAAAAUUACUUCUGUGCAUAGUAGAAUCAUUUGGUCUUGUGACUGGAGUCCUGAUAACAAGUACUUCUUCACUGGAAGU: 0.815 ratio
ACCCUUUCUGGGGUCCAAGAAGAAUCUGCCCUUUGCUAUCUUCUCCAAGUUGAUGAGUUUAGAUUUUUAUUGGACUGUGGCUGGGAUGAGCACUUUUCUAUGGAUAUUAUUGAUUCCCUG: 0.455 ratio
UCCUGGGCGCCCUUGAAGCACCGCGGGUCAUGGCUGGCACGGCGCGCGGCUGCGGGACCAGCCUGGACCUGCUGCGGUCCUUGCCGAGAGUGAGCCUGGCCAACCUGAAGCCCAGUCCUA: 0.0531 ratio
CAGGAAUGGAAGGCAAACAGUUCUGCUAUUAUUGAUCACAUAUUUGCCAGUAAAGCAGUGGUGAAUGCCGCAAUUCCAGCCUAUCACCUAAGAGACCUUAUCAAAAGCAUGCUUCAUGAU: 0.112 ratio
AUAUUUUCACAUGCCUAUUUUCAUCACCGGCAGAUAUUUGAUGAAUAUGAAAAUGAAACAUUUUUAUGUCAUCGGUUUACCAAAUUUGUGAUGAAAUAUAAUCUGAUGUCGAAGGAUAAC: 0.253 ratio
AAACACUCAAGAGCUGCCUGGUAUGAAGCAAAGAGGAUCCUGGGCUAUUUAAAGCUCUGGUAACCGAGAAGAACUUGCCCCUGUUCUUACCUAGCUUCUUUGAGUCAGUCAGUGUGCAGA: 0.15 ratio

Sample 2
Target: CCNE2, cyclin fold, Cln2 fusion (human)
Method: yeast growth competition, sequencing
Medium: yeast
Setting: strong parent motif
Baseline: not given
Direction: higher = stronger binding
Endpoint: normalised enrichment score
Parent: PKN2 docking peptide (human); VSAVRKLDFSDTM; partner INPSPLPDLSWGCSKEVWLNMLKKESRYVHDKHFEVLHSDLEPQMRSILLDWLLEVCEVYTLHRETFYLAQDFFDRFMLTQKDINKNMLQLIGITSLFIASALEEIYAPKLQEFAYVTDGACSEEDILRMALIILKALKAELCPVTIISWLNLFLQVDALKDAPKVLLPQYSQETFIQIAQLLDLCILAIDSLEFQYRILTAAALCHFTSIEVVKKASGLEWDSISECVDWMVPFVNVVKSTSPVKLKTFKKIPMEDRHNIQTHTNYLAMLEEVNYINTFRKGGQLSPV
VSAHRKLDFSDTM [V4H]: 0.526
VSAVRKLDFQDTM [S10Q]: 3.51
VSAVRCLDFSDTM [K6C]: 2.77
VSAVRVLDFSDTM [K6V]: 3.75
VSAVRKLDFNDTM [S10N]: 4.46
VSGVRKLDFSDTM [A3G]: 1.37
VHAVRKLDFSDTM [S2H]: 4.72
VSAVRKVDFSDTM [L7V]: 0.364
VSAVRKNDFSDTM [L7N]: 0.159
VSAVRKLDFSITM [D11I]: 5.12
VSLVRKLDFSDTM [A3L]: 1.19
VYAVRKLDFSDTM [S2Y]: 3.5
VSAVRKLDSSDTM [F9S]: 0.391
VSAVCKLDFSDTM [R5C]: 0.845
VSAVRKLDESDTM [F9E]: 0.235
VSAVRKLTFSDTM [D8T]: 3.65
VSAVRKLDFSDCM [T12C]: 4.9

Sample 3
Target: Sal-like protein 4, full length isoform A (SALL4, Homo sapiens, UniProt Q9UJQ4, residues 1-1053)
Chain of UniProt Q9UJQ4 (whole entry, looked up): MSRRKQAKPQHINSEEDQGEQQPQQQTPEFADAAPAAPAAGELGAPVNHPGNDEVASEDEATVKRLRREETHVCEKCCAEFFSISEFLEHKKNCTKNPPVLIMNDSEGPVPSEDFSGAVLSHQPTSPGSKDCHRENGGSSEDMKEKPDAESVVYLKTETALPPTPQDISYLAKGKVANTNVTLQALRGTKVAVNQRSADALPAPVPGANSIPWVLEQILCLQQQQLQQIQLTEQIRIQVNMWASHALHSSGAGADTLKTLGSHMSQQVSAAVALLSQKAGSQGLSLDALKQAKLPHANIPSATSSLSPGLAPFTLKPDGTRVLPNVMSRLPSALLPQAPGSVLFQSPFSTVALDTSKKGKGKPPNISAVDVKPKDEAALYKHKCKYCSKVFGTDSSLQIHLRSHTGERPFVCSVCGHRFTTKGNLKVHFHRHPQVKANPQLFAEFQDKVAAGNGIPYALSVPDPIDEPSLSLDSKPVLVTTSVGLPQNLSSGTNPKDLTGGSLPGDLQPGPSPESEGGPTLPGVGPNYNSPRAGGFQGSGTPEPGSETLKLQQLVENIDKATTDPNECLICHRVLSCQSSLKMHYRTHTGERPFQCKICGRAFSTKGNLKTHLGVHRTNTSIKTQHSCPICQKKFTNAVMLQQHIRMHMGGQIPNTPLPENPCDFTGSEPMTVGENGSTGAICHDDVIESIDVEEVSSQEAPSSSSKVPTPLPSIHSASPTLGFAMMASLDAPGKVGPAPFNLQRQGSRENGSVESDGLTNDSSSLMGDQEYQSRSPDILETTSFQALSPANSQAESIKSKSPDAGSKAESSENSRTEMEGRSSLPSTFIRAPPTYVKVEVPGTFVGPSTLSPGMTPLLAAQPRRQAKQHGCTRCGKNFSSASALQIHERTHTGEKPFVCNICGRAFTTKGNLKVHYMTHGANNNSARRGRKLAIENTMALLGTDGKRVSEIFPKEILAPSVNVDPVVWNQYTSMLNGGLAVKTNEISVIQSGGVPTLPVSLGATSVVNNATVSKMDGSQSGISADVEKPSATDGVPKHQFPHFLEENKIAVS
Method: universal PBM
Form: double-stranded DNA, one strand shown
Medium: in vitro
Tested at: 600 nM
Setting: 8-mer, flanks averaged, mean of replicates
Direction: higher = stronger binding
Endpoint: E-score
AAACAGGT: 0.076
CCCATACC: -0.143
ATCGGATA: 0.144
TAGCCATA: 0.173
GCCGTACA: -0.0603
CGCAAGAC: -0.0565
CAACTTCG: -0.0534
AAGAGCGT: 0.0524
ATAAGATG: 0.181
ACACACTC: 0.0534
AGCGGGGC: -0.343
ACTCCGGA: -0.0601
AGAAGCAT: 0.125
CAAATTAA: 0.26
CCACCAGC: -0.195
ACGCGTAA: 0.0386
GTATAGCA: 0.222
ACGCACCC: -0.301
AGAGTCGC: -0.245
CCAAACGC: -0.183
ACTGAACT: 0.038
AAGCGATC: -0.0503
TACTAGTA: 0.252
GGGGCCGA: -0.386
AGTGTGAC: 0.0312

Sample 4
Target: RNA binding protein fox-1 homolog 2, RRM domain, GST-SBP tag (RBFOX2, Homo sapiens, UniProt O43251-10, residues 100-194)
Method: RNA Bind-n-Seq
Form: RNA
Medium: in vitro
Tested at: 365 nM
Setting: natural RNA segment, single round, ends assumed
Baseline: no-protein control
Direction: higher = stronger binding
Endpoint: RBNS enrichment (R)
Shared flanks, not repeated: GGGAGUUCUACAGUCCGACGAUC … UGGAAUUCUCGGGUGCCAA
Residues (chain): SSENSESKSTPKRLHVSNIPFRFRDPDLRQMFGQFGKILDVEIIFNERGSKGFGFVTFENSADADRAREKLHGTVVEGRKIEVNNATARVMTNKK
CAAGCAAGUGGCUGCAGGGACACUGAUGCCACAGCUCCUGGGCCGGCCCUCACAUCUGAAACUGGUUGCCGAGAGCCCUGAGCCAAGGCAAGGAUUUGCCAAAAAUGUUC: 0.188
CUAGAAGCAUGUGAAGAUGCCCAAGAGCCUGGAGACAUUGCCAUCCUUCCUACAGAAACUGUUUCUCCUCCUCCCCUCCAGCCUUCACACAAGGGCCUUGGCUUUGUUGA: 1.6
CUUGUGUUGUCCUUUGUCUUUUCUGUCUCAGAAUUUUGUACAUCUGGCUUAUUUUAAUGUGAUGAUGUAAUUGAUGGUUUUUUAUUAUUGUGGUAGGCCUUUUAACAUUU: 0.721
UUGACAUGAAGACGACUGUUCCGUUAUUGGGAAGUAAUCAGCUUUUGAAACUGAGAGUGUUGGGAAGGAUAUACUUACGUAAUGGAGCUGUCAAAGCCGAGAGACCAGCC: 0.515
AAUCUGCUCAGGAGACCUGGAGGAGCAGAGGAUAAUUAGCAUCUCAGGUUAAGUGUGAGUAAUCUGAGAAACAAUGACUAAUUCUUGCAUAUUUUGUAACUUCCAUGUGA: 1.62
CACCUGUACCUCCCUAUGUCCCCAUCCUUGCCCAGUCUCGACGUGCACCAAGGGCACAAGAGUGGCAGUCCAGAUCUGCCACUUGUUUUAAUAAAGCCUUCUCUCUCACC: 0.974
ACAAGGUGAGUGGAGUGUAAAACUGGUCAGCCCUUGGAGAGACUUCUUGGUUGUGUCACCCCCAAAGAGUCAGAACUGUACACAGUUCAAAACUUAGUGACUGUGGGUCA: 0.269
CCGCCUUAGAGCCUCGUCCCUCCCUCACUGAAGGACCUGAGCUGGCCAGGCCCUGAGAGUCUGGUCUGCGCCUUGGGAUGGGGAGUCCCAAAGCGGGACGCCGCAGGUGU: 0.25
UUUGAGAUCACUUUUAUUUUUGAAAUGGCCUUUGUUCAUUGUAUUGUGAUCCAAUAACACUUUGUAUUAAAUUGUUUAGCAGCCAUUUGUGUUGUGAAGGGGUAGAAGAU: 0.48
AACCAUGGAGAAAUUAACUCAGUUAAUUUAAGACUUUGUUUGGUUUUUUUUUUUUAAGUUUAGUUUUAUUUUUUGUUUUACAAAUAUAUAAGCACCAUGUGCUAGGCCUC: 0.596
AGCUGCAGAAGUCACCUACUUGUGGGUCUAGGGUAAUGAACACAUAGAUCUAUUUGACUUAAUAAGUAGGAACCCCCUUUGCCCUUCCCCCAUCUCCUCUCCCUUACUGU: 0.747
GGCUGCACUAAAAUUCACUUAGGGUCGAGCAUCCUGUUUGCUGAUAAAUAUUAAGGAGAAUUCAUGACUCUUGACAGCUUUUCUCUCUUCACUCCCCAAGUCAAGGGGAG: 0.471

Sample 5
Target: Histone acetyltransferase KAT6A, winged helix 1, GST fusion (KAT6A, Homo sapiens, UniProt Q92794, residues 1-85)
Method: protein binding microarray
Form: double-stranded DNA, one strand shown
Medium: in vitro
Tested at: not given
Setting: 8-mer, flanks averaged, mean of 2 arrays, mostly near background
Baseline: not given
Direction: higher = stronger binding
Endpoint: E-score
Construct (chain): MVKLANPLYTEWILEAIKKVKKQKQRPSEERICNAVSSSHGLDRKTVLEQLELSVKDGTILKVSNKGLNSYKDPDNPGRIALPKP
TGGCTGAA: -0.228
CATTGTAG: -0.118
ACGAGGAT: -0.186
CATGTAGC: 0.0517
CCCCATAC: 0.151
CACGCTTA: 0.108
CAACTCAG: -0.175
CAGGAAAA: -0.114
ACAAGTCC: -0.0422
CGAGGTAC: -0.0563
TGCGGGAA: 0.324
AGACGCCA: 0.0378
CTACATAG: -0.275
ACTTTGCT: -0.123
CTCGGTTC: -0.124
AAAGGTAT: -0.0528
CTTCGCCC: 0.155
ATGGGCTA: -0.271
AGCACGAT: -0.0538
GCAACTCA: -0.125

Some of these lines once more (sample 4):
CACCUGUACCUCCCUAUGUCCCCAUCCUUGCCCAGUCUCGACGUGCACCAAGGGCACAAGAGUGGCAGUCCAGAUCUGCCACUUGUUUUAAUAAAGCCUUCUCUCUCACC: 0.974
AGCUGCAGAAGUCACCUACUUGUGGGUCUAGGGUAAUGAACACAUAGAUCUAUUUGACUUAAUAAGUAGGAACCCCCUUUGCCCUUCCCCCAUCUCCUCUCCCUUACUGU: 0.747
CCGCCUUAGAGCCUCGUCCCUCCCUCACUGAAGGACCUGAGCUGGCCAGGCCCUGAGAGUCUGGUCUGCGCCUUGGGAUGGGGAGUCCCAAAGCGGGACGCCGCAGGUGU: 0.25
CUAGAAGCAUGUGAAGAUGCCCAAGAGCCUGGAGACAUUGCCAUCCUUCCUACAGAAACUGUUUCUCCUCCUCCCCUCCAGCCUUCACACAAGGGCCUUGGCUUUGUUGA: 1.6
UUGACAUGAAGACGACUGUUCCGUUAUUGGGAAGUAAUCAGCUUUUGAAACUGAGAGUGUUGGGAAGGAUAUACUUACGUAAUGGAGCUGUCAAAGCCGAGAGACCAGCC: 0.515
AAUCUGCUCAGGAGACCUGGAGGAGCAGAGGAUAAUUAGCAUCUCAGGUUAAGUGUGAGUAAUCUGAGAAACAAUGACUAAUUCUUGCAUAUUUUGUAACUUCCAUGUGA: 1.62
ACAAGGUGAGUGGAGUGUAAAACUGGUCAGCCCUUGGAGAGACUUCUUGGUUGUGUCACCCCCAAAGAGUCAGAACUGUACACAGUUCAAAACUUAGUGACUGUGGGUCA: 0.269
CUUGUGUUGUCCUUUGUCUUUUCUGUCUCAGAAUUUUGUACAUCUGGCUUAUUUUAAUGUGAUGAUGUAAUUGAUGGUUUUUUAUUAUUGUGGUAGGCCUUUUAACAUUU: 0.721
UUUGAGAUCACUUUUAUUUUUGAAAUGGCCUUUGUUCAUUGUAUUGUGAUCCAAUAACACUUUGUAUUAAAUUGUUUAGCAGCCAUUUGUGUUGUGAAGGGGUAGAAGAU: 0.48
GGCUGCACUAAAAUUCACUUAGGGUCGAGCAUCCUGUUUGCUGAUAAAUAUUAAGGAGAAUUCAUGACUCUUGACAGCUUUUCUCUCUUCACUCCCCAAGUCAAGGGGAG: 0.471
AACCAUGGAGAAAUUAACUCAGUUAAUUUAAGACUUUGUUUGGUUUUUUUUUUUUAAGUUUAGUUUUAUUUUUUGUUUUACAAAUAUAUAAGCACCAUGUGCUAGGCCUC: 0.596
